Results gathered from unrelated publications.
Lines come from different studies, so protocols differ.
Organism: Candida albicans

| Structure (SMILES) | test | test system | setting | MIC |
| --- | --- | --- | --- | --- |
| C[C@@H](O)[C@H](NC(=O)[C@H](Cc1c[nH]c2ccccc12)NC(=O)[C@H](Cc1c[nH]c2ccccc12)NC(=O)[C@H](Cc1c[nH]c2ccccc12)NC(=O)[C@@H](NC(=O)[C@H](Cc1c[nH]c2ccccc12)NC(=O)[C@H](CCCNC(=N)N)NC(=O)[C@@H](N)CCCNC(=N)N)[C@@H](C)O)C(=O)N[C@@H](Cc1c[nH]c2ccccc12)C(=O)N[C@@H](CCCNC(=N)N)C(=O)N[C@@H](CCCNC(=N)N)C(N)=O | – | CGMCC 2.209, RPMI 1640 MOPS-buffered | 48 h, 37 °C, tested up to 128 µM | 8 µM |
| CC[C@H](C)[C@H](NC(=O)CN)C(=O)NCC(=O)N[C@@H](C)C(=O)N[C@H](C(=O)N[C@@H](CC(C)C)C(=O)N[C@@H](CCCCN)C(=O)N[C@H](C(=O)N[C@@H](CC(C)C)C(=O)N[C@H](C(=O)N[C@H](C(=O)NCC(=O)N[C@@H](CC(C)C)C(=O)N1CCC[C@H]1C(=O)N[C@@H](C)C(=O)N[C@@H](CC(C)C)C(=O)N[C@H](C(=O)N[C@@H](CO)C(=O)N[C@@H](Cc1c[nH]c2ccccc12)C(=O)N[C@H](C(=O)N[C@@H](CCCCN)C(=O)N[C@@H](CCCNC(=N)N)C(=O)N[C@@H](CCCCN)C(=O)N[C@@H](CCCNC(=N)N)C(=O)N[C@@H](CCC(N)=O)C(=O)N[C@@H](CCC(N)=O)C(N)=O)[C@@H](C)CC)[C@@H](C)CC)[C@@H](C)O)[C@@H](C)O)C(C)C)C(C)C | broth microdilution | 58288, RPMI-1640 | 48 h, 30 °C | 4 µM |
| O=S(=O)(c1ccc(OCC(O)CN2CCCC2)c(Cl)c1)c1ccc(OCC(O)CN2CCCC2)c(Cl)c1 (centres unmarked) | – | DSY654 Cdr knockout | – | > 128 µg/mL |
| N=C(N)NCCC[C@H](NC(=O)[C@H](Cc1c[nH]c2ccccc12)NC(=O)[C@H](CCCNC(=N)N)NC(=O)[C@H](Cc1c[nH]c2ccccc12)NC(=O)[C@H](Cc1c[nH]c2ccccc12)NC(=O)[C@H](Cc1c[nH]c2ccccc12)NC(=O)[C@H](CCCNC(=N)N)NC(=O)[C@H](Cc1c[nH]c2ccccc12)NC(=O)[C@@H](N)CCCNC(=N)N)C(N)=O | broth microdilution | CGMCC 2.209, RPMI 1640-MOPS | 48 h, 30 °C, added: NaCl 150 mM | 8 µM |
| C#Cc1cccc(C=NNC(=O)c2ccc(Br)cc2)c1O | – | A39 | 48 h | 1 µg/mL |
| N=C(N)NCCC[C@H](NC(=O)[C@H](Cc1c[nH]c2ccccc12)NC(=O)[C@H](CCCNC(=N)N)NC(=O)[C@H](Cc1c[nH]c2ccccc12)NC(=O)[C@H](Cc1c[nH]c2ccccc12)NC(=O)[C@H](Cc1c[nH]c2ccccc12)NC(=O)[C@H](CCCNC(=N)N)NC(=O)[C@H](Cc1c[nH]c2ccccc12)NC(=O)[C@@H](N)CCCNC(=N)N)C(=O)N[C@@H](Cc1ccccc1)C(N)=O | broth microdilution | CGMCC 2.209, RPMI 1640-MOPS | 48 h, 30 °C | 8 µM |
| CCCCC[C@@H]1CC(=O)N[C@H](CC(C)C)C(=O)N[C@@H](CO)C(=O)N[C@@H]([C@@H](C)O)C(=O)N[C@H](Cc2ccccc2)C(=O)N[C@@H]([C@@H](C)CC)C(=O)O1 | fungal growth, XTT | SC5314 | – | > 100 µM |
| C#Cc1ccc(O)c(C=NNC(=O)c2ccc(Br)c(Br)c2)c1 | – | A39 | 48 h | 0.5 µg/mL |
| N=C(N)NCCC[C@H](NC(=O)[C@H](Cc1c[nH]c2ccccc12)NC(=O)[C@H](CCCNC(=N)N)NC(=O)[C@H](Cc1c[nH]c2ccccc12)NC(=O)[C@H](Cc1c[nH]c2ccccc12)NC(=O)[C@H](Cc1c[nH]c2ccccc12)NC(=O)[C@H](CCCNC(=N)N)NC(=O)[C@H](Cc1c[nH]c2ccccc12)NC(=O)[C@@H](N)CCCNC(=N)N)C(=O)N[C@@H](Cc1c[nH]c2ccccc12)C(N)=O | broth microdilution | 17546, RPMI 1640-MOPS | 48 h, 30 °C | 8 µM |
| CC[C@H](C)[C@H](NC(=O)CN)C(=O)N[C@@H](C)C(=O)N[C@@H](CC(=O)O)C(=O)N[C@@H](C)C(=O)N[C@H](C(=O)N[C@@H](CCCCN)C(=O)N[C@@H](CCCCN)C(=O)N[C@H](C(=O)N[C@@H](C)C(=O)N[C@@H](CCCCN)C(=O)N[C@@H](C)C(=O)N[C@@H](CC(C)C)C(=O)NCC(N)=O)[C@@H](C)CC)[C@@H](C)CC | – | ATCC 90029, RPMI MOPS | 24 h, pH 7.0, 33 °C | 64 µg/mL |
| C[C@H](NC(=O)[C@H](CCCNC(=N)N)NC(=O)[C@H](Cc1c[nH]c2ccccc12)NC(=O)[C@H](CCCNC(=N)N)NC(=O)[C@H](Cc1c[nH]c2ccccc12)NC(=O)[C@H](Cc1c[nH]c2ccccc12)NC(=O)[C@H](Cc1c[nH]c2ccccc12)NC(=O)[C@H](CCCNC(=N)N)NC(=O)[C@H](Cc1c[nH]c2ccccc12)NC(=O)[C@H](CCCNC(=N)N)NC(=O)CN)C(N)=O | broth microdilution | CGMCC 2.209, RPMI 1640-MOPS | 48 h, 30 °C, added: FeCl3 4 µM | 8 µM |
| CC[C@H](C)[C@H](NC(=O)[C@H](CCCNC(=N)N)NC(=O)[C@@H](NC(=O)[C@H](C)NC(=O)[C@@H](N)CCCNC(=N)N)C(C)C)C(=O)N[C@@H](Cc1c[nH]c2ccccc12)C(=O)N[C@@H](Cc1c[nH]c2ccccc12)C(N)=O | – | – | – | 32 µg/mL |
| O=[N+]([O-])[O-].[Ag+] | broth microdilution, turbidity | ATCC 10231 | 24 h, as nitrate salt | 1.5 µg/mL |
| CC[C@H](C)[C@H](NC(=O)CN)C(=O)NCC(=O)N[C@@H](C)C(=O)N[C@H](C(=O)N[C@@H](CC(C)C)C(=O)N[C@@H](CCCCN)C(=O)N[C@H](C(=O)N[C@@H](CC(C)C)C(=O)N[C@H](C(=O)N[C@H](C(=O)NCC(=O)N[C@@H](CC(C)C)C(=O)N1CCC[C@H]1C(=O)N[C@@H](C)C(=O)N[C@@H](CC(C)C)C(=O)N[C@H](C(=O)N[C@@H](CO)C(=O)N[C@@H](Cc1c[nH]c2ccccc12)C(=O)N[C@H](C(=O)N[C@@H](CCCCN)C(=O)N[C@@H](CCCNC(=N)N)C(=O)N[C@@H](CCCCN)C(=O)N[C@@H](CCCNC(=N)N)C(=O)N[C@@H](CCC(N)=O)C(=O)N[C@@H](CCC(N)=O)C(N)=O)[C@@H](C)CC)[C@@H](C)CC)[C@@H](C)O)[C@@H](C)O)C(C)C)C(C)C | broth microdilution | 17546, RPMI 1640-MOPS | 48 h, 30 °C | 8 µM |
| C[C@@H]1[C@H](O)[C@@H](C)/C=C/C=C/C=C/C=C/C=C/C=C/C=C/[C@H](O[C@@H]2O[C@H](C)[C@@H](O)[C@H](N)[C@@H]2O)C[C@@H]2O[C@](O)(C[C@@H](O)C[C@@H](O)[C@H](O)CC[C@@H](O)C[C@@H](O)CC(=O)O[C@H]1C)C[C@H](O)[C@H]2C(=O)O | fungal growth | ATCC 90028 | – | 0.31 µg/mL |
| OC(Cn1cncn1)(Cn1cncn1)c1ccc(F)cc1F | – | 2.209 | before resistance passaging | 4 µM |
| CC[C@H](C)[C@H](NC(=O)[C@H](Cc1c[nH]c2ccccc12)NC(=O)CNC(=O)[C@@H](N)CCCNC(=N)N)C(=O)N[C@@H](CCCNC(=N)N)C(=O)N[C@@H](Cc1c[nH]c2ccccc12)C(=O)N[C@@H](Cc1c[nH]c2ccccc12)C(N)=O | – | – | – | 16 µg/mL |

Excerpt of the above:
| Structure (SMILES) | test | test system | setting | MIC |
| --- | --- | --- | --- | --- |
| CCCCC[C@@H]1CC(=O)N[C@H](CC(C)C)C(=O)N[C@@H](CO)C(=O)N[C@@H]([C@@H](C)O)C(=O)N[C@H](Cc2ccccc2)C(=O)N[C@@H]([C@@H](C)CC)C(=O)O1 | fungal growth, XTT | SC5314 | – | > 100 µM |
| C#Cc1ccc(O)c(C=NNC(=O)c2ccc(Br)c(Br)c2)c1 | – | A39 | 48 h | 0.5 µg/mL |
| N=C(N)NCCC[C@H](NC(=O)[C@H](Cc1c[nH]c2ccccc12)NC(=O)[C@H](CCCNC(=N)N)NC(=O)[C@H](Cc1c[nH]c2ccccc12)NC(=O)[C@H](Cc1c[nH]c2ccccc12)NC(=O)[C@H](Cc1c[nH]c2ccccc12)NC(=O)[C@H](CCCNC(=N)N)NC(=O)[C@H](Cc1c[nH]c2ccccc12)NC(=O)[C@@H](N)CCCNC(=N)N)C(=O)N[C@@H](Cc1c[nH]c2ccccc12)C(N)=O | broth microdilution | 17546, RPMI 1640-MOPS | 48 h, 30 °C | 8 µM |
